Experimental data of several laboratories.
Cell line: MOLM-13

O=C1CC[C@H](N2Cc3cc(-c4ccn5nccc5n4)ccc3C2=O)C(=O)N1
IC50 (cell growth, CellTiter luminescence; 72 h): > 100 nM

CCNC(=O)Nc1ccc(S(=O)(=O)Oc2ccccc2CC)cc1
IC50 (cell growth or viability, MTT; 48 h): 700 nM

Cc1nn2ccc(-c3ccc4c(c3)CN([C@H]3CCC(=O)NC3=O)C4=O)nc2c1Cl
IC50 (cell growth, CellTiter luminescence; 72 h): 8 nM

CC[C@H](C)[C@H]1[C@H](OC)CC(=O)N2C[C@H](C[C@H]2[C@H](OC)[C@@H](C)C(=O)N[C@@H](Cc2ccccc2)C(=O)OC)NC(=O)CCCC(=O)N[C@@H](C)[C@H](NC(=O)[C@@H](NC)C(C)C)C(=O)N1C
GI50 (cell growth or viability, resazurin): > 1000 nM

COc1ccc(Nc2ccn3ncc(-c4ccc5c(c4)CN([C@H]4CCC(=O)NC4=O)C5=O)c3n2)cc1Cl
IC50 (cell growth, CellTiter luminescence; 72 h): > 100 nM

C/C(=N\NC(=O)c1cccc(S(=O)(=O)N2CCOCC2)c1)c1cc(Cl)ccc1O
EC50 (cell growth or viability, resazurin; 96 h): 203 nM

CC[C@H](C)[C@@H]([C@@H](CC(=O)N1C[C@@H](N=[N+]=[N-])C[C@H]1[C@H](OC)[C@@H](C)C(=O)N[C@@H](Cc1ccccc1)C(=O)OC)OC)N(C)C(=O)[C@@H](NC(=O)[C@H](C(C)C)N(C)C)[C@H](C)N=[N+]=[N-]
GI50 (cell growth or viability, resazurin): 0.057 nM

Cc1cc(CN2CCN(c3c(Br)cnc4[nH]c(-c5ccc(N6CCN(C)CC6)cc5)nc34)CC2)no1
IC50 (cell growth or viability, MTS; 72 h): 23 nM

O=c1sn(Cc2ccccc2)c(=O)n1C1CC1
IC50 (cell growth or viability; 72 h): 9500 nM

CC1(C)CCN(Cc2ccc(C(=O)NC[C@]3(O)CCCN(c4cc(NCc5ccccc5)ncn4)C3)c(O)c2)CC1
half-life of m6A reduction (measured: m6A in mRNA; 40 µM, 1 to 16 h): 1.8 h

Excerpt of the above:
O=c1sn(Cc2ccccc2)c(=O)n1C1CC1
IC50 (cell growth or viability; 72 h): 9500 nM
